Measured values collected from several papers.
A part holds a random share of what one study measured.

Series 1 — method: RNA Bind-n-Seq; form: RNA; medium: in vitro; tested at: 200 nM; notes: whole 134-nt RNA, ends assumed; added: 150 mM LiCl; reference: input library; reading: higher = stronger binding; all molecules: 7-deaza-guanosine replaces G
Target: Fragile X messenger ribonucleoprotein 1, C-terminal low-complexity region (Fmr1, Mus musculus, UniProt P35922)
All sequences stand within: GGGAGUUCUACAGUCCGACGAUC … UGGAAUUCUCGGGUGUCAAGG
Strand	log2 enrichment
CAAGUCCUGUGCUACACAUCGUAUGUACCGAAUCGGAAAAAGGUUUGGUUUUUGGAAAGUAUUAUGUUACGCCGUUCGGAUCUGCACUUC	-2.14
CUCAAGUCCUGUGCUACACAUCGUAUGUACCGAAUCGGGAAGGGAAGGGGAAGGAAAGUAUUAUGUUACGCCGUUCGGAUCUGCACUUCC	-0.559
UGGCCCUGGUGGCAUGCGGGGAGGAAGAGGUGGCCUCAUGGAUCGUGGUGGUCCCGGUGGAAUGUUCAGAGGUGGCCGUGGUGGAGACAU	0.202
UGGCCCUGGUGGCAUGCGGGGAGGAAGAGGUGGCCUCAUGGAUCGUUGUGGUCCCGGUGGAAUGUUCAGAGGUGGCCGUGGUGGAGACAG	0.101
CAAGUCCUGUGCUACACAUCGUAUGUACCGAAUCGGGAAAAAGGGAAAGGGUGGGAAAGUAUUAUGUUACGCCGUUCGGAUCUGCACUUC	-0.744
GCAGGAAGUAAAAACAAAUGGAAAUGCUUCGGAUAGUGGCAGGGGUGGGGGUUGCUAAGGAAAGGGUGGGAUGGGAGUGGGUAAAGAAAA	1.57
UGUGCUACACAUCGUAUGUACCGAAUCGGGAAAAAAAGGGGAAAAAAAGGGGAAAAAAAGGGAAAGUAUUAUGUUACGCCGUUCGGAUCU	0.667
UGGGAGGUGGAUUUUGUUUAUUUUUUUAGCUCAUUUCCAGGGGCGGGAAUUUUUUUUUAAUAUGUGUCAUGAAUAAAGUUGUUUUUGAAA	-0.389

Series 2 — method: RNA Bind-n-Seq; form: RNA; medium: in vitro; tested at: 365 nM; reference: no-protein control; reading: higher = stronger binding
Target: RNA binding protein fox-1 homolog 2, RRM domain, GST-SBP tag (RBFOX2, Homo sapiens, UniProt O43251-10, residues 100-194)
Notes: natural RNA segment, single round, ends assumed
All sequences stand within: GGGAGUUCUACAGUCCGACGAUC … UGGAAUUCUCGGGUGCCAA
Strand	RBNS enrichment (R)
UGUAUAGACAUUAUUUUCGUCGUAUGUUUCUAUAUUUUGAAACAAAGGUAUGUAACUUCUUCAUUUGAAGGAUAAGCUGGUUUGUGUUAAGCAGUAUAGUAUUGGUUGGG	0.794
CACAAUUACCCUGUAAACUCUCUGUUAGGGCAACCACCACCACCUGUCUUCCAGGACACAUUUUUAGAUACUCUGACAGGCCACUGCAUCUCAGAUUCAGGGGAGAAAAU	0.598
CUGUUUUUAACCCUCCAAAAAAUUCCCUUCUCCUGCCCUCUUUCCCUGGCAACCCUGAUUGAUUAUCUGAUCCUAUAAUUUUGCCUUUUCUAGAAUGUCAUAUAAAUGGA	1.4
CAUGCCACACCUCUCUCCAGGUGCCCUCUGCCUCUUCACCCCACAAGAAGCCUUAUCCUACGUCCUUCUCUCCAUCUAUCGGACCCCAGUUUCCAUCACUAUCUCCAGAG	0.593
AAACAGGCCUCAUUGCGUAAUUCCUUUGCCCUGAAAAGUGUCACCACCUUUAUAUUUUUACCCCAGCCUUGGAGUUAUCUUUUUCUGCUCUCCAUUCUCCAUGUCCAAAA	0.931
GGCCUUGGGACUUCACAUCCCCCAGCACACAAGCCUCACCACCCCCUGCCAUCCCCCCUCCAUUGCUUGUUCCAGCAUCUUGGUGAAAGGGGCAUCAGCUCUGGUGUCCC	1.6
CGACCGGCCCUGCCCCUCUUCCCGGGAUCACUUAAUGAACCACGUGUUUUGACAUCAUGUAAACCUAAGCACGUAGAGAUGAUUCGGAUUUGACAAAAUAACAUUUGAGU	1.1
AGAUGGAACUUUCAUAAAGUUUCUUGGCAGUAGUUUAUUUUGCUUCAAAUAAACUUAUUUGAAAAGUGUCUCAAGUCAAAUGGAUUCAUCACCUGUCAUGCAUUGACACC	0.379

Series 3 — method: universal PBM; form: double-stranded DNA, one strand shown; medium: in vitro; tested at: not given; reading: higher = stronger binding
Target: Sal-like protein 4, full length isoform B (SALL4, Homo sapiens, UniProt Q9UJQ4-2, residues 1-616)
Notes: 8-mer, flanks averaged, mean of replicates
Strand	E-score
ATTGGCGG	0.131
GCTGCCGA	-0.293
ACTTACAC	0.113
GCAAGGAA	-0.138
CTAGTACA	0.141
ATGATGCG	0.0335
GAGTTACC	-0.211
CGCAATTA	0.185
CTCCCGAC	-0.177
CAAGAAAA	0.147
ACGTCTAA	0.0996
CGCTGCAA	0.00358
AATCGCCT	-0.0495
AATAGTCT	0.188
AGGGTATG	0.0788
ACACCACA	-0.0164
CAACGTCG	-0.246
GAGATTGC	-0.114
TATCTCAA	0.301

Series 4 — method: RNA Bind-n-Seq; form: RNA; medium: in vitro; tested at: not given; reference: input RNA pool; reading: higher = stronger binding
Target: RING finger protein unkempt homolog, zinc fingers 1-6, GST-SBP tag (UNK, Homo sapiens, UniProt Q9C0B0, residues 30-357)
UniProt Q9C0B0, sequence (30-357, looked up): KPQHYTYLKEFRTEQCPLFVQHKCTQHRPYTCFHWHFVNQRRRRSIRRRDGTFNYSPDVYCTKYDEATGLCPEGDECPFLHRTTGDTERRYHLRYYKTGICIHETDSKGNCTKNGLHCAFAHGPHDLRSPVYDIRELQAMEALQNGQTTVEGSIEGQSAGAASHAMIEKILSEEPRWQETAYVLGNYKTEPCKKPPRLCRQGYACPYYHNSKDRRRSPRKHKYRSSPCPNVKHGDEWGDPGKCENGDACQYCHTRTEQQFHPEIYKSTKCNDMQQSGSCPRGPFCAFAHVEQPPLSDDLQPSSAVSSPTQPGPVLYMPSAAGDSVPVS
Notes: RNA with constant flanks, human and mouse sites, ends assumed
All sequences stand within: GGGAGUUCUACAGUCCGACGAUC … CAACAGAGGAUUGAGCAUCA
Strand	bound/input enrichment [ratio]
AUCGUUGAGGAGUCUUUUAAAUUAGAUUUUUGUUUUGUUGUCUCCCAAGUUAAUAUUAUAUUUAGAUAUCAGAGAGUCAGGCAAAAAGGAAAACUUUUAUCUCUAGGGAAAAAACAUUUA	18.5
GUAAUAGAAAUUAUGUAGCUCCUUAUGUUGGCAAAGGAGCUCUAUAUAGUUUCACUUUGUAUAAAAGUUAGGACCAGCUGUUGUUACAUGUAAUAUUUUAGUUCAGAACUUGACCUGAAG	1.06
GGUGAAAAAUCAAAUGCCAAAAUUAAAGAUGAAGAUCAUAAUCCAGCAUUUGAAAACUCAGACUGCACACUGAAGAAGAUGGAUAAAGAGGGUAAAACAUUAAAAAAACAUAAAUUAAAA	0.866
CUUCUCAUGACCAACUGUAUCAAGAAUGAUCUUAAUCAUAGCACGCAGUUUGUGCAGGGGCUAGCACUUUGUACCCUCGGCUGCAUGGGCUCCUCGGAGAUGUGCAGAGAUCUUGCGGGA	0.242
ACCUCCCCCUCCCGCCUCACCCCACCCCCGCUUUUUGGAAAGUUUUUGGCGUUUCUUUUCCUUCCCCAUACAAAGUGAUUACAGUUUCCCCCGCAAGGGUCUAUCGAAGGGCUUGACGGA	1.32
UACUUGUUCAGUCCAUAAACUAUGAUAUAGCCUCUAUACAUGGUAAGAAAAUUUGAAAAAUUAAAGAUGGUUGCACAGUAUACUUUUAUAAUCCAGCAUGUAACACCACAUGACAAUUUG	0.249
CCACAGGCCGGUUUAAUGGCCAGUUUAAAACCUAUGGCAUCUGCGGGGCCAUUCGCAGGAUGGUGAGUUCUACCACCUGGUCUGCCUUGUACUGUUCAUGUGACAUCUGAGCUCUGAUGG	0.197
CCAGUAUUCAACAUGUCAUACAAUCCAGCAGAAAACGCAGUGCUGCUCUGCACCAGAGCAAGCAAUCUAGAGAACAGUACCUACGACCUAUACACCAUCCCCAAAGACGCAGACUCCCAG	0.737

Series 5 — method: protein binding microarray; form: double-stranded DNA, one strand shown; medium: in vitro; tested at: not given; reference: not given; reading: higher = stronger binding
Target: Histone acetyltransferase KAT6A, winged helix 2, GST fusion (KAT6A, Homo sapiens, UniProt Q92794, residues 85-181)
Notes: 8-mer, flanks averaged, mean of 2 arrays, mostly near background
Construct (chain): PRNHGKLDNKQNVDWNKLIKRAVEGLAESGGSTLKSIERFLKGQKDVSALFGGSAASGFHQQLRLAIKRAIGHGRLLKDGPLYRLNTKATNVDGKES
Strand	E-score
CGTGCTAA	-0.0559
ATCAGCTA	-0.0217
ACTCACCT	-0.081
CTTTATGC	0.0814
AGTGGCTA	-0.0153
CGTGGGCA	-0.052
AAGGTAGT	-0.106
CCCCCTCC	0.184
AAGCCTAG	-0.0023
ATGAGCAA	0.138
CACGATGA	0.0663
ACGTCCGG	-0.0549
CCGAACAA	-0.038
AGGTGTCC	-0.0317
CACTTTAC	-0.203
CTATAGAG	-0.0735
TCACTGAA	-0.0167

For quick reference, copied from above (series 3):
Strand	E-score
CTAGTACA	0.141
ATGATGCG	0.0335
GAGTTACC	-0.211
CGCAATTA	0.185
CTCCCGAC	-0.177
CAAGAAAA	0.147
ACGTCTAA	0.0996
